Assay results collected from several papers.
Compare with care: the assays were run in different laboratories. ± gives the spread as reported.
HTR2A: 5-hydroxytryptamine receptor 2A (HTR2A, Homo sapiens, UniProt P28223)
UniProt P28223, sequence (whole entry, looked up): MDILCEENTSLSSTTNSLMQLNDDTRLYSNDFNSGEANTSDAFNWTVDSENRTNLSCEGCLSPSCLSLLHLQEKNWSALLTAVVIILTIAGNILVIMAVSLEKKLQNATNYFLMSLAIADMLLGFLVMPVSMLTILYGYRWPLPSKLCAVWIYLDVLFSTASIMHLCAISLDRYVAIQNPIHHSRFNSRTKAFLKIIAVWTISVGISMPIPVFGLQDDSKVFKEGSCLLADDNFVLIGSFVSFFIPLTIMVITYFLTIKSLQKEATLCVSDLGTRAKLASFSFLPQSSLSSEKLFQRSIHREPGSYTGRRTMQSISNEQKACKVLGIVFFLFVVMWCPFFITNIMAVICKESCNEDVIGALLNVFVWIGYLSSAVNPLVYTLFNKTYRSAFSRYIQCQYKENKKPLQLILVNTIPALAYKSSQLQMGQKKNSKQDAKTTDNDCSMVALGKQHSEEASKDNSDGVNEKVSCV
GABA-A receptor; alpha-5/beta-3/gamma-2: GABA-A receptor; alpha-5/beta-3/gamma-2 (Homo sapiens, UniProt P18507+P28472+P31644)
UniProt P28472, sequence (whole entry, looked up): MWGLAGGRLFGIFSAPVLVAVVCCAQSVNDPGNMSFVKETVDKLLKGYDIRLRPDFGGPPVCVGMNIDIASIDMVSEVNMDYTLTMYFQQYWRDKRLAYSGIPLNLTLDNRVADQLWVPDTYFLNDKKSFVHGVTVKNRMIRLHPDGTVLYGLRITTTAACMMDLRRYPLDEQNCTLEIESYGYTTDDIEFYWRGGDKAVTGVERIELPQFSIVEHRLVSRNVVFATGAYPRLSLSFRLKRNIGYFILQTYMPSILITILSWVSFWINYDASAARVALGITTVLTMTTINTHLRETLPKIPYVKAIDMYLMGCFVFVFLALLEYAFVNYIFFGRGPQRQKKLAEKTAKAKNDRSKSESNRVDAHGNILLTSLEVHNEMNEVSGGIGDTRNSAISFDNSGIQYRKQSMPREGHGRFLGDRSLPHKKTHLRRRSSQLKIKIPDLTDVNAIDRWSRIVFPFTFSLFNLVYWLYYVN
UniProt P31644, sequence (whole entry, looked up): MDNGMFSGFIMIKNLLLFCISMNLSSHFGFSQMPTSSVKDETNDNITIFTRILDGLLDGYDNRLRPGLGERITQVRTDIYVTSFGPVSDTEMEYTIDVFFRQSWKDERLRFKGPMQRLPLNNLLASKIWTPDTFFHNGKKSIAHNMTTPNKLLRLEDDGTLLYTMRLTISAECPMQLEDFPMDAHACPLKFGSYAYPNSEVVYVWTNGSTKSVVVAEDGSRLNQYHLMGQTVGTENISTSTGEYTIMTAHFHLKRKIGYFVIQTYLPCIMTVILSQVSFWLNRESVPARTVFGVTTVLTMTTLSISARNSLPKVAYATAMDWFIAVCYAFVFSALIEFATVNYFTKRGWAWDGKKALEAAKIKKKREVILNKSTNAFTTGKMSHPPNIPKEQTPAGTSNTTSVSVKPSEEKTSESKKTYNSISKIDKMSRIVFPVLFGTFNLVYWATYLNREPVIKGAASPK
UniProt P18507, sequence (whole entry, looked up): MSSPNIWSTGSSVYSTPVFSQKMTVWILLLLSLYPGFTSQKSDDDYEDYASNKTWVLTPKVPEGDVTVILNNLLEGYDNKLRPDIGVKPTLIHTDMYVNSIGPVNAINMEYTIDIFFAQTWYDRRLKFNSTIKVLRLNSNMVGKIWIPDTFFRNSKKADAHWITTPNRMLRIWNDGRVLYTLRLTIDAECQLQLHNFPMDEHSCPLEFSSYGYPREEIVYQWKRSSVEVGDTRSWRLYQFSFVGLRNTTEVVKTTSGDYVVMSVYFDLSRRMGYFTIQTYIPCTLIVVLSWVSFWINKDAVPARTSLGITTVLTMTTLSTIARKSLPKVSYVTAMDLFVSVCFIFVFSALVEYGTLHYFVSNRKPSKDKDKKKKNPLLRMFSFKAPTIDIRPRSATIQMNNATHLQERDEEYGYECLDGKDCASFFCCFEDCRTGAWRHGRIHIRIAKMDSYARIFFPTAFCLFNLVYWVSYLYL
AHR: Aryl hydrocarbon receptor (AHR, Homo sapiens, UniProt P35869)
UniProt P35869, sequence (whole entry, looked up): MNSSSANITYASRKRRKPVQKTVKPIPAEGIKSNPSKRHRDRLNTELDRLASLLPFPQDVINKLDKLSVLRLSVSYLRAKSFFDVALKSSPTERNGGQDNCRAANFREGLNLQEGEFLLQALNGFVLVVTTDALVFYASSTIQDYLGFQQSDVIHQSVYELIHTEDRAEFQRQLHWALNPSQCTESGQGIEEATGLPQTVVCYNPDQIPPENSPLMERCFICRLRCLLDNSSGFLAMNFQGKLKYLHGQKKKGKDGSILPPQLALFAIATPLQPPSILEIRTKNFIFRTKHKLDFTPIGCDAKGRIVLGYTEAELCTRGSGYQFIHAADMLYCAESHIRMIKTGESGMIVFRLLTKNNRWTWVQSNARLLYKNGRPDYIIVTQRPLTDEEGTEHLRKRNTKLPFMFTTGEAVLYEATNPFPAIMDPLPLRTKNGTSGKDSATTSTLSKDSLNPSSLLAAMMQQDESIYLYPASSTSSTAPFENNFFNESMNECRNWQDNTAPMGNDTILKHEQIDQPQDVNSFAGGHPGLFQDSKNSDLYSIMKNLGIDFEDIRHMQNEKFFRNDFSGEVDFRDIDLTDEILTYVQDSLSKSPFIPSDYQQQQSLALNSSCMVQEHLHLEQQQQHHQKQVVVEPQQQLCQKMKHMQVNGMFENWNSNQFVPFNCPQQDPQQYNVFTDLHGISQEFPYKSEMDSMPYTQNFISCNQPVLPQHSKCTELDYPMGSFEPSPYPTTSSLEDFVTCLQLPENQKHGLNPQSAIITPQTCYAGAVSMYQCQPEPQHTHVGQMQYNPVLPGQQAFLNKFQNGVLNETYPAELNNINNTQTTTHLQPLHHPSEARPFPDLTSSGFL
Aryl hydrocarbon receptor: Aryl hydrocarbon receptor (Danio rerio, UniProt Q9YGV3)
npr-9: Galanin-like G-protein coupled receptor npr-9 (npr-9, Caenorhabditis elegans, UniProt Q23497)
UniProt Q23497, sequence (whole entry, looked up): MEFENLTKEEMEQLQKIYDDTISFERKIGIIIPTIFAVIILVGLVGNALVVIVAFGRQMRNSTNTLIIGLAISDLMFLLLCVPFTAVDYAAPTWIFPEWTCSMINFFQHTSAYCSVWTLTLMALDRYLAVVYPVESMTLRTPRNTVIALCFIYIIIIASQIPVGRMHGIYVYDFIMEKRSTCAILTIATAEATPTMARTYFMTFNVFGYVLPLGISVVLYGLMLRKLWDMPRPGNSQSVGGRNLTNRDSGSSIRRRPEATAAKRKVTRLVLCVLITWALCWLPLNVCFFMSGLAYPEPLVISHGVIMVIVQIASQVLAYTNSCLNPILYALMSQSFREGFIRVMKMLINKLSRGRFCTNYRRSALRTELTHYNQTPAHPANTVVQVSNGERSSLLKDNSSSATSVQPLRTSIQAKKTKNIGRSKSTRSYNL
UniProt Q704Y3, sequence (whole entry, unmodified, looked up): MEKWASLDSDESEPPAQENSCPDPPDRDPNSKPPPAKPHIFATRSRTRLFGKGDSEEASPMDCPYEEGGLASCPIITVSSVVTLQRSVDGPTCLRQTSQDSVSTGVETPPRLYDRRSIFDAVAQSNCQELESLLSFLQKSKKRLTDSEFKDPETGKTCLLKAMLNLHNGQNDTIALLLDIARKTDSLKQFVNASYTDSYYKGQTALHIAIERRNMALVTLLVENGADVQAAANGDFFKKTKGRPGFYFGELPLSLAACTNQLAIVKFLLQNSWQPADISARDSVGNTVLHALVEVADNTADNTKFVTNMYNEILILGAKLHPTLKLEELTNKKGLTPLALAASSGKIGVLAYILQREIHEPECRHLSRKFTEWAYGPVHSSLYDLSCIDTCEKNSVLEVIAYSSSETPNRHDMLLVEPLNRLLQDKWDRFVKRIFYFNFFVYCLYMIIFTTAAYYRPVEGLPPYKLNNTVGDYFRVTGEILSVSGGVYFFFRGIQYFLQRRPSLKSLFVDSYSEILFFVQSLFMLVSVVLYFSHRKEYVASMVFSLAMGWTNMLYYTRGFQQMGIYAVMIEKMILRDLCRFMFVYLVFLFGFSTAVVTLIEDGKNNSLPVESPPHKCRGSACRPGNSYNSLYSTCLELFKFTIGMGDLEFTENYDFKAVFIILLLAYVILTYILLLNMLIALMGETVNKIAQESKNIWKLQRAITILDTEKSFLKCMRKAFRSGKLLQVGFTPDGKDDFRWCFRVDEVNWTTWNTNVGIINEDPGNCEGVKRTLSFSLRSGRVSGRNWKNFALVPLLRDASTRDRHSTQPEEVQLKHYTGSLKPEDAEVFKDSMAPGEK
UniProt P21554, sequence (whole entry, looked up): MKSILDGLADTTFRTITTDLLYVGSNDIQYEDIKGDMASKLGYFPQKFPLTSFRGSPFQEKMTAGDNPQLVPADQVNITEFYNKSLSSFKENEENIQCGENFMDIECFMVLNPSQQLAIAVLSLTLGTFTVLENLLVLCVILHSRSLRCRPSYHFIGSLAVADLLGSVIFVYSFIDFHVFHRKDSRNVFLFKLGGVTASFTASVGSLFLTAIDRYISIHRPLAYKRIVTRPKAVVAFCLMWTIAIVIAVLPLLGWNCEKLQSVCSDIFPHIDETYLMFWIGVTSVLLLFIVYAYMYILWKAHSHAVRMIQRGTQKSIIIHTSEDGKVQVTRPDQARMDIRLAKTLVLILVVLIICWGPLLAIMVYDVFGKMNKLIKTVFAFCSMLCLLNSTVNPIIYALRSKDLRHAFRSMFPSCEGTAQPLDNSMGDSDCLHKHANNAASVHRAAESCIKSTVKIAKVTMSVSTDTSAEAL
UniProt P41143, sequence (whole entry, looked up): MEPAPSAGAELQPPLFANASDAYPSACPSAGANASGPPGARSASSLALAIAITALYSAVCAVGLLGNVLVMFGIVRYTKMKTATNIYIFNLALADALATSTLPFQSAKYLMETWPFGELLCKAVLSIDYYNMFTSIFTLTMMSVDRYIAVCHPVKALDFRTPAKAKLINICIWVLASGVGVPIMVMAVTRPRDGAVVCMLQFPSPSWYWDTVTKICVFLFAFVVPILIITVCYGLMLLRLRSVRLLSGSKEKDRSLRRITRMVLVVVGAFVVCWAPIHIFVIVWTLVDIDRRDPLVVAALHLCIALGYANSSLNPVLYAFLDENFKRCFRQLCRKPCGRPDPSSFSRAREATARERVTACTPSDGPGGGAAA

CC(C)(C)NC[C@H](O)COc1nsnc1N1CCOCC1  EC50 (Gag polyprotein, nucleocapsid protein p7 (gag, Human immunodeficiency virus type 1 group M subtype B, UniProt P04591); NCp7-RNA binding enhancement, AlphaScreen; with: U3 RNA; baseline: DMSO): 25.1 µM
CCCC(NCCc1cc(OC)c(C#N)cc1OC)c1ccccc1O (stereo not shown)  EC50 (HTR2A; agonist): 0.35 µM
NCc1cc(=O)[nH]o1  EC50 (GABA-A receptor; alpha-5/beta-3/gamma-2; chloride current, agonist, electrophysiology; HEK293 expressing GABAA α5β3γ2): 1 µM
Cc1ccc2ccc3ccccc3c2c1  EC50 (AHR; reporter gene, agonist, yeast LacZ reporter; Saccharomyces cerevisiae; 18 h, 30 °C; baseline: 50% of 100 µM phenanthrene activity): 5.79 µM
Clc1cc2c(cc1Cl)Oc1cc(Cl)c(Cl)cc1O2  EC50 (Uncharacterized protein (Takifugu rubripes, UniProt Q4JHL3); reporter gene, agonist, dual-luciferase; COS-7; 24 h): 0.00262 ± 0.00248 µM
Cc1cc(C)nc(Nc2ccccc2)n1  EC50 (AHR; agonist): 4.6 µM
C[C@@H](Cc1ccsc1)NC(=O)NC[C@H](Cc1ccc(O)cc1)N(C)C  EC50 (Delta-type opioid receptor (OPRD1, Homo sapiens, UniProt P41143)): 0.108 ± 0.0403 µM
c1ccc2cc3c(cc2c1)-c1cccc2cccc-3c12  EC50 (Aryl hydrocarbon receptor; agonist; ZF4 reporter cells; 22 to 24 h): 0.0024 µM
Cc1cccc2c1ccc1ccccc12  EC50 (AHR; reporter gene, agonist, yeast LacZ reporter; Saccharomyces cerevisiae; 18 h, 30 °C; baseline: 50% of 100 µM phenanthrene activity): 3.98 µM
C[N+]1(C)CCN(c2ccccc2)CC1  EC50 (Neuronal acetylcholine receptor; alpha9/alpha10 (Homo sapiens, UniProt Q9GZZ6+Q9UGM1)): 4.39 ± 0.27 µM
C[C@@H](NC(=O)c1ccc(C#Cc2cccc(F)c2)cn1)C(C)(C)O  EC50 (Metabotropic glutamate receptor 5 (Grm5, Rattus norvegicus, UniProt P31424); calcium mobilization, positive allosteric modulator; with: glutamate EC20): 0.0015 ± 0.0008 µM
COc1cc(CCNC(CO)c2ccccc2)c(OC)cc1C#N (stereo not shown)  EC50 (HTR2A; agonist): 0.32 µM
CC[C@H](C)[C@H](NC(=O)[C@H](CO)NC(=O)[C@H](C)NC(=O)[C@H](Cc1ccc(OP(=O)(O)O)cc1)NC(=O)[C@H](CCC(=O)O)NC(=O)[C@@H](NC(=O)[C@H](Cc1c[nH]cn1)NC(=O)[C@H](CC(N)=O)NC(=O)[C@H](CC(N)=O)NC(=O)[C@@H]1CCCN1C(=O)[C@H](CCC(=O)O)NC(=O)[C@H](C)NC(=O)[C@H](C)NC(=O)[C@H](CCC(N)=O)NC(=O)[C@@H]1CCCN1C(=O)[C@H](C)NC(=O)[C@@H]1CCCN1C(=O)[C@H](CCCCN)NC(=O)[C@H](CCCCN)NC(=O)CNC(=O)[C@H](CCCCN)NC(=O)[C@@H]1CCCN1C(=O)[C@H](CC(C)C)NC(=O)[C@H](CC(N)=O)NC(=O)[C@H](CC(C)C)NC(=O)[C@H](CC(=O)O)NC(=O)[C@H](C)NC(=O)[C@H](Cc1ccc(OP(=O)(O)O)cc1)NC(=O)[C@@H](NC(=O)[C@@H](NC(=O)[C@@H](N)CC(=O)O)[C@@H](C)CC)[C@@H](C)O)[C@@H](C)O)C(=O)N[C@@H](CCC(N)=O)C(=O)N[C@H](C(=O)N[C@@H](CO)C(=O)O)[C@@H](C)O  EC50 (Tyrosine-protein phosphatase non-receptor type 11 (PTPN11, Homo sapiens, UniProt Q06124, R111E); enzyme activity, activator; pH 7.0, 0.2% DMSO, with: DiFMUP 100 µM, phosphopeptide): 0.83 ± 0.03 µM
O=C1c2ccccc2C(=O)c2c1ccc1ccccc21  EC50 (Aryl hydrocarbon receptor; agonist; ZF4 reporter cells; 22 to 24 h): 1.2 µM
CNC(C)Cc1ccc2n[se]nc2c1 (stereo not shown)  EC50 (Sodium-dependent serotonin transporter (SLC6A4, Homo sapiens, UniProt P31645); transporter current, whole-cell patch clamp; HEK293; holding -60 mV): 0.77 µM
O=C(Nc1ccccc1F)c1ccc(-c2cccc(B(O)O)c2)s1  EC50 (Estrogen-related receptor gamma (ESRRG, Homo sapiens, UniProt P62508)): ~0.45 µM
Cc1ccc2c(ccc3ccccc32)c1  EC50 (AHR; reporter gene, agonist, yeast LacZ reporter; Saccharomyces cerevisiae; 18 h, 30 °C; baseline: 50% of 100 µM phenanthrene activity): 4.62 µM
Oc1noc2c1CCNC2  EC50 (GABA-A receptor; alpha-5/beta-3/gamma-2; chloride current, agonist, electrophysiology; HEK293 expressing GABAA α5β3γ2): 11 µM
O=C(O)c1ccccc1Nc1cccc(C(F)(F)F)c1  EC50 (BK channel alpha subunit (Cavia porcellus, UniProt A0A286XP95); delayed rectifier K+ current, activator; dispersed vascular smooth muscle cells, guinea pig, MA arteriole; at +40 mV): 293 µM
Cc1cccc2ccc3ccccc3c12  EC50 (AHR; reporter gene, agonist, yeast LacZ reporter; Saccharomyces cerevisiae; 18 h): 29.8 µM
CCCCC/C=C\C/C=C\C/C=C\C/C=C\CCCC(=O)NCCO  EC50 (Transient receptor potential cation channel subfamily V member 1 (Trpv1, Mus musculus, UniProt Q704Y3, E571S); ion current, agonist, whole-cell patch clamp; 24 °C, E571S, +80 mV): 7.49 ± 1.18 µM
CCCCCCCCCCCCCC(=O)O[C@@H]1[C@@H](C)[C@@]2(O)[C@@H](C=C(CO)C[C@]3(O)C(=O)C(C)=C[C@@H]23)[C@@H]2C(C)(C)[C@]12OC(C)=O  EC50 (Protein kinase C delta type (Prkcd, Mus musculus, UniProt P28867); mouse cells): 0.038 ± 0.016 µM
C=CCCCn1c(O)c(N=NC(=O)c2ccccc2)c2ccccc21  EC50 (Cannabinoid receptor 1 (CNR1, Homo sapiens, UniProt P21554); agonist): 0.102 µM
CC#Cc1cc(C)nc(Nc2ccccc2)n1  EC50 (AHR; agonist): 0.77 µM
CSCC[C@H](NC(=O)[C@H](CCCNC(=N)N)NC(=O)[C@H](Cc1ccccc1)NC(=O)[C@H](C)NC(=O)[C@H](CC(N)=O)NC(=O)[C@@H]1CCCN1C(=O)[C@H](CC(=O)O)NC(=O)[C@H](CC(C)C)NC(=O)[C@H](CC(N)=O)NC(=O)[C@@H](N)C(C)C)C(=O)N[C@@H](CO)C(=O)N[C@@H](Cc1ccccc1)C(N)=O  EC50 (npr-9; calcium mobilization, agonist, aequorin luminescence; CHO cells): 0.48 µM
COc1cc(C(=O)N2CC[C@@H](O)[C@@H](N)C2)cc2nc(-c3cc4ccccc4n3CC3CC3)n(C)c12  EC50 (HTR2A; intracellular calcium, agonist, luminescence): > 39.8 µM
CSCC[C@H](NC(=O)[C@H](CCCNC(=N)N)NC(=O)[C@H](Cc1ccccc1)NC(=O)[C@H](C)NC(=O)[C@H](CC(N)=O)NC(=O)[C@H](C)NC(=O)[C@H](CC(=O)O)NC(=O)[C@@H](N)CCSC)C(=O)N[C@@H](CO)C(=O)N[C@@H](Cc1ccccc1)C(N)=O  EC50 (npr-9; calcium mobilization, agonist, aequorin luminescence; CHO cells): 0.244 µM
Cc1cn([C@H]2C[C@H](O)[C@@H](COP(=O)(O)OP(=O)(O)OP(=O)(O)O)O2)c(=O)[nH]c1=O  EC50 (dgt (Salmonella enterica, UniProt A0A5H6DAK1)): 27.6 µM

For quick reference, copied from above:
CC[C@H](C)[C@H](NC(=O)[C@H](CO)NC(=O)[C@H](C)NC(=O)[C@H](Cc1ccc(OP(=O)(O)O)cc1)NC(=O)[C@H](CCC(=O)O)NC(=O)[C@@H](NC(=O)[C@H](Cc1c[nH]cn1)NC(=O)[C@H](CC(N)=O)NC(=O)[C@H](CC(N)=O)NC(=O)[C@@H]1CCCN1C(=O)[C@H](CCC(=O)O)NC(=O)[C@H](C)NC(=O)[C@H](C)NC(=O)[C@H](CCC(N)=O)NC(=O)[C@@H]1CCCN1C(=O)[C@H](C)NC(=O)[C@@H]1CCCN1C(=O)[C@H](CCCCN)NC(=O)[C@H](CCCCN)NC(=O)CNC(=O)[C@H](CCCCN)NC(=O)[C@@H]1CCCN1C(=O)[C@H](CC(C)C)NC(=O)[C@H](CC(N)=O)NC(=O)[C@H](CC(C)C)NC(=O)[C@H](CC(=O)O)NC(=O)[C@H](C)NC(=O)[C@H](Cc1ccc(OP(=O)(O)O)cc1)NC(=O)[C@@H](NC(=O)[C@@H](NC(=O)[C@@H](N)CC(=O)O)[C@@H](C)CC)[C@@H](C)O)[C@@H](C)O)C(=O)N[C@@H](CCC(N)=O)C(=O)N[C@H](C(=O)N[C@@H](CO)C(=O)O)[C@@H](C)O  EC50 (Tyrosine-protein phosphatase non-receptor type 11 (PTPN11, Homo sapiens, UniProt Q06124, R111E); enzyme activity, activator; pH 7.0, 0.2% DMSO, with: DiFMUP 100 µM, phosphopeptide): 0.83 ± 0.03 µM
C[C@@H](Cc1ccsc1)NC(=O)NC[C@H](Cc1ccc(O)cc1)N(C)C  EC50 (Delta-type opioid receptor (OPRD1, Homo sapiens, UniProt P41143)): 0.108 ± 0.0403 µM
